Experimental data collected from several papers.
Protocols differ between the studies behind these lines. ± marks the error that the study gave.
Organism: HIV-1

Compound	test	test system	conditions	IC50
CC(=O)[O-].F[P-](F)(F)(F)(F)F.[Ni+2].c1ccc(CN2CCN3CCN(CC2)CCN(Cc2ccccc2)CC3)cc1	viral replication	MT-4, IIIB	5 d	0.59 µM
CCCC(C)C1OC(=O)[C@H](C(C)C)N(C)C(=O)[C@H](CO)NC(=O)[C@H]([C@@H](C)C(N)=O)NC(=O)[C@@H]([C@H](C)OC(N)=O)NC(=O)[C@H](O)CNC(=O)/C=C/C=C/CC(O)C1C (stereo partly drawn)	neutralization	SF162 Env pseudovirus		> 50 mg/L
CC(C)C[C@@H](N)C(=O)NCC(=O)N[C@H](C)C(=O)N[C@H](CO)C(=O)N[C@H](Cc1c[nH]c2ccccc12)C(=O)N[C@H](Cc1c[nH]cn1)C(=O)N[C@H](CCCNC(=N)N)C(=O)N1CCC[C@@H]1C(=O)N[C@H](CC(=O)O)C(=O)N[C@H](CCCCN)C(=O)N[C@H](CSSC[C@@H](NC(=O)[C@@H](CCCCN)NC(=O)[C@@H](CC(=O)O)NC(=O)[C@H]1CCCN1C(=O)[C@@H](CCCNC(=N)N)NC(=O)[C@@H](Cc1c[nH]cn1)NC(=O)[C@@H](Cc1c[nH]c2ccccc12)NC(=O)[C@@H](CO)NC(=O)[C@@H](C)NC(=O)CNC(=O)[C@H](N)CC(C)C)C(=O)N[C@H](C)C(=O)N[C@H](CC(C)C)C(=O)NCC(=O)N[C@H](Cc1ccc(O)cc1)C(=O)N[C@H](CCC(N)=O)C(=O)N[C@H](CCCCN)C(=O)N[C@H](CCCNC(=N)N)C(=O)N1CCC[C@@H]1C(=O)N[C@H](CC(C)C)C(=O)N1CCC[C@@H]1C(N)=O)C(=O)N[C@H](C)C(=O)N[C@H](CC(C)C)C(=O)NCC(=O)N[C@H](Cc1ccc(O)cc1)C(=O)N[C@H](CCC(N)=O)C(=O)N[C@H](CCCCN)C(=O)N[C@H](CCCNC(=N)N)C(=O)N1CCC[C@@H]1C(=O)N[C@H](CC(C)C)C(=O)N1CCC[C@@H]1C(N)=O	single-cycle infectivity, p24 immunoperoxidase focus	HeLa cells expressing CD4, HXBc2	48 h	10 ± 0.49 µM
Cc1nc([C@H](NC(=O)c2ccc(-c3ccc(Cl)cc3)[nH]2)[C@H]2CCCCN2)sc1CO	viral entry	TZM-bl, panel of 56 Env pseudoviruses		1.57 µM
CC[C@H](C)[C@H](N)C(=O)N[C@@H](CO)C(=O)N[C@@H](Cc1ccccc1)C(=O)N[C@@H]1CSCc2ccc(cc2)-c2ccc(cc2)CSC[C@@H](C(=O)N[C@@H](CCC(=O)O)C(=O)N[C@@H](CO)C(=O)NCC(=O)N[C@@H](CO)C(N)=O)NC(=O)[C@H](Cc2ccc(O)cc2)NC(=O)[C@H](Cc2ccc(O)cc2)NC(=O)[C@H](CC(=O)O)NC(=O)[C@H](CC(C)C)NC(=O)[C@H](CC(C)C)NC(=O)[C@H](CCC(=O)O)NC1=O	viral entry, single-cycle pseudovirus	Env HIV-26191-2, subtype C		6.3 ± 0.1 µM
CC(=O)N[C@@H](CS)C(=O)N[C@@H](CO)C(=O)N[C@@H](CO)C(=O)N[C@@H](Cc1c[nH]cn1)C(=O)N[C@@H](Cc1ccccc1)C(=O)N1CCC[C@H]1C(=O)N[C@@H](Cc1ccccc1)C(=O)N[C@@H](CO)C(=O)N[C@@H](CCC(N)=O)C(=O)N[C@@H](Cc1ccc(O)cc1)C(=O)N[C@@H](CCC(N)=O)C(=O)N[C@@H](Cc1ccccc1)C(=O)N[C@@H](Cc1ccc(O)cc1)C(=O)N[C@@H](CCCCN)C(N)=O	viral entry	TZM-bl, YU2 (R5) pseudovirus	48 h	14.1 µM
CC(C)C[C@@H](N)C(=O)NCC(=O)N[C@H](C)C(=O)N[C@H](CO)C(=O)N[C@H](Cc1c[nH]c2ccccc12)C(=O)N[C@H](Cc1c[nH]cn1)C(=O)N[C@H](CCCNC(=N)N)C(=O)N1CCC[C@@H]1C(=O)N[C@H](CC(=O)O)C(=O)N[C@H](CCCCN)C(=O)N[C@H](CS)C(=O)N[C@H](CS)C(=O)N[C@H](CC(C)C)C(=O)NCC(=O)N[C@H](Cc1ccc(O)cc1)C(=O)N[C@H](CCC(N)=O)C(=O)N[C@H](CCCCN)C(=O)N[C@H](CCCNC(=N)N)C(=O)N1CCC[C@@H]1C(=O)N[C@H](CC(C)C)C(=O)N1CCC[C@@H]1C(N)=O	viral replication, β-galactosidase chemiluminescence	HeLa-CD4-LTR-β-gal cells, IIIB	40 to 48 h	12.1 ± 3.26 µM
CC(=O)N[C@@H](CC(C)C)C(=O)N[C@@H](CS)C(=O)N[C@@H](CC(=O)O)C(=O)N[C@@H](CS)C(=O)N1CCC[C@H]1C(=O)N[C@@H](CC(N)=O)C(=O)NCC(=O)N1CCC[C@H]1C(=O)N[C@@H](Cc1c[nH]c2ccccc12)C(=O)N[C@H](C(=O)N[C@@H](Cc1c[nH]c2ccccc12)C(=O)N[C@H](C(=O)N1CCC[C@H]1C(=O)N[C@@H](C)C(=O)N[C@@H](Cc1ccccc1)C(=O)N[C@@H](CO)C(=O)N[C@@H](CCC(N)=O)C(=O)N[C@@H](C)C(=O)N[C@H](C(=O)NCC(=O)O)C(C)C)C(C)C)C(C)C	viral replication, inhibitor, SEAP reporter	CEMx174 SEAP reporter, NL4-3	3 days	> 60 µM
CC(=O)[O-].CN1CCN2CCN(CC1)CCN(Cc1ccccc1)CC2.F[P-](F)(F)(F)(F)F.[Ni+2]	viral replication	MT-4, IIIB	5 d	0.55 µM
CC(=O)N[C@@H](CS)C(=O)N[C@@H](CO)C(=O)N[C@@H](CO)C(=O)N[C@@H](Cc1c[nH]cn1)C(=O)N[C@@H](Cc1ccc(O)cc1)C(=O)N1CCC[C@H]1C(=O)N[C@@H](Cc1ccccc1)C(=O)N[C@@H](CO)C(=O)N[C@@H](CCC(N)=O)C(=O)N[C@@H](Cc1ccc(O)cc1)C(=O)N[C@@H](CCC(N)=O)C(=O)N[C@@H](Cc1ccccc1)C(=O)N[C@@H](Cc1c[nH]c2ccccc12)C(=O)N[C@@H](CCCCN)C(N)=O	viral entry	TZM-bl, YU2 (R5) pseudovirus	48 h	10.3 µM
CC(=O)[O-].CN1CCCN2CCN(CCCN(Cc3ccccc3)CC2)CC1.F[P-](F)(F)(F)(F)F.[Co+2]	viral replication	MT-4, IIIB	5 d	> 100 µM
COc1ccc2c(c1)OCCCC=CCCCCN(CC(O)C(Cc1ccccc1)NC(=O)OC1COC3OCCC13)S2(=O)=O (mixture of isomers)	viral replication	PHA-stimulated PBMC, MDR/MM R5		0.055 ± 0.025 µM

A few entries again:
Compound	test	test system	conditions	IC50
CC(=O)[O-].CN1CCCN2CCN(CCCN(Cc3ccccc3)CC2)CC1.F[P-](F)(F)(F)(F)F.[Co+2]	viral replication	MT-4, IIIB	5 d	> 100 µM
COc1ccc2c(c1)OCCCC=CCCCCN(CC(O)C(Cc1ccccc1)NC(=O)OC1COC3OCCC13)S2(=O)=O (mixture of isomers)	viral replication	PHA-stimulated PBMC, MDR/MM R5		0.055 ± 0.025 µM
